Results gathered from unrelated publications.
Lines come from different studies, so protocols differ.
T1: RNA aptamer; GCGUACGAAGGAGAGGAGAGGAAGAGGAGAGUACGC
T2: RNA aptamer; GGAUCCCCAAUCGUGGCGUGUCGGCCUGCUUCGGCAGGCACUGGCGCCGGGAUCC
T3: RNA aptamer, 9-nt flexible stem loop; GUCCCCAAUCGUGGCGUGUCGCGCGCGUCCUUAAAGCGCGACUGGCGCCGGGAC
T4: RNA aptamer, 5'-triphosphate; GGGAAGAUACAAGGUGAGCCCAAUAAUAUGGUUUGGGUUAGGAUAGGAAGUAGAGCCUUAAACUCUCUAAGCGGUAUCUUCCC
T5: RNA aptamer; chain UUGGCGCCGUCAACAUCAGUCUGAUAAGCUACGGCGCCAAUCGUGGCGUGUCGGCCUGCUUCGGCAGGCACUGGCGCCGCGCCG; chain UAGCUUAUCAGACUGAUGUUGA
T6: RNA aptamer; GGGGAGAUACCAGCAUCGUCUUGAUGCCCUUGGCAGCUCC
T7: RNA aptamer, 5'-triphosphate, 3'-UU overhang, 2',3'-cyclic phosphate; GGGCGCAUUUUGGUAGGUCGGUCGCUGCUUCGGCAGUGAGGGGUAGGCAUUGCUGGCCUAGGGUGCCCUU
T8: RNA aptamer; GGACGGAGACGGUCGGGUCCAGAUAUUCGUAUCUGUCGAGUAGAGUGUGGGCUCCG
T9: RNA aptamer, 2'-5' linkage G15-U16; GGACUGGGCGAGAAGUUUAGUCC
T10: RNA aptamer; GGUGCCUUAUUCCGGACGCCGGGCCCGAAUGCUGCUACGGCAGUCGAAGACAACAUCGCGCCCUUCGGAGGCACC
T11: RNA aptamer; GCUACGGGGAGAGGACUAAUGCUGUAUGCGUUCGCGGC

SMILES	target	mode	method	concentration	temperature	notes	binding
CN(C)c1ccc(Nc2c3ccc(NC(=O)CCN4CCCC4)cc3nc3cc(NC(=O)CCN4CCCC4)ccc23)cc1	T1, RNA aptamer	competitor	competition fluorescence	–	–	–	binds
CN(CCO)c1cc2sc(/C=C(\C#N)c3ccc(C#N)cc3)cc2s1	T2, RNA aptamer	–	fluorescence turn-on	–	–	MgCl2 5 mM, KCl 100 mM	binds
CN(CCO)c1cc2sc(/C=C(\C#N)c3ccc(C#N)cc3)cc2s1	T3, RNA aptamer, 9-nt flexible stem loop	–	fluorescence turn-on	–	–	–	binds weakly
CC1=N/C(=C\c2cc(F)c(O)c(F)c2)C(=O)N1CC(F)(F)F	T4, RNA aptamer, 5'-triphosphate	–	19F NMR	–	–	–	binds
CN(CCO)c1cc2sc(/C=C(\C#N)c3ccc(C#N)cc3)cc2s1	T5, RNA aptamer	–	fluorescence activation, native PAGE	–	–	–	binds
CN1C(=O)/C(=C/c2cc(F)c(O)c(F)c2)N=C1/C=N/O	T4, RNA aptamer, 5'-triphosphate	–	X-ray crystallography	–	–	–	binds
Cn1c(=O)c2c(ncn2C)n(C)c1=O	T6, RNA aptamer	–	ITC	–	25 °C	MgCl2 mM	no binding
Nc1nc2c(ncn2[C@@H]2O[C@H](COP(=O)(O)OP(=O)(O)OP(=O)(O)O)[C@@H](O)[C@H]2O)c(=O)[nH]1	T7, RNA aptamer, 5'-triphosphate, 3'-UU overhang, 2',3'-cyclic phosphate	–	X-ray crystallography	–	–	–	binds
CC1=N/C(=C\c2cc(F)c(O)c(F)c2)C(=O)N1CC(F)(F)F	T8, RNA aptamer	–	fluorescence turn-on	–	–	MgCl2 5 mM, KCl 100 mM	binds
NC[C@@H]1O[C@H](O[C@H]2[C@@H](O)[C@H](O[C@@H]3[C@@H](O)[C@H](N)C[C@H](N)[C@H]3O[C@H]3O[C@H](CN)[C@@H](O)[C@H](O)[C@H]3N)O[C@@H]2CO)[C@H](N)[C@@H](O)[C@@H]1O	T9, RNA aptamer, 2'-5' linkage G15-U16	–	ITC	–	–	–	no binding
CN(C)c1ccc2c(-c3ccc(C(=O)NCCOCCOCCNc4ccc([N+](=O)[O-])cc4[N+](=O)[O-])cc3C(=O)[O-])c3ccc(N(C)C)cc3[o+]c2c1	T10, RNA aptamer	–	fluorescence turn-on	–	–	MgCl2 5 mM, KCl 100 mM	binds
CN1C=CC(=Cc2sc3ccccc3[n+]2CC(=O)NCCOCCOCCOCCNC(=O)CCCC[C@@H]2SC[C@@H]3NC(=O)N[C@@H]32)c2ccccc21	T11, RNA aptamer	–	fluorescence light-up	10 µM dye	–	–	binds

Excerpt of the above:
SMILES	target	mode	method	concentration	temperature	notes	binding
CN(CCO)c1cc2sc(/C=C(\C#N)c3ccc(C#N)cc3)cc2s1	T2, RNA aptamer	–	fluorescence turn-on	–	–	MgCl2 5 mM, KCl 100 mM	binds
